Results pooled from the literature.
In brackets after ≈: the same amount, converted by molar mass.

`CN(Cc1ccc(C(C)(C)C)cc1)Cc1cccc2ccccc12` gave an inhibition zone of 27 mm (Trichophyton rubrum; microbial growth, disc diffusion; ATCC28188; 0.001 µg/mL, 6 days).
For `NCCCC(=O)O`, “activity vs control” read 96.5% (Cryptosporidium parvum; parasite growth, imaging; HCT-8; 1 mM, 24 h, intracellular).
With `CN(CC(=O)Nc1ccc(N(C)c2ccc(Cl)cc2)cc1Cl)c1ccccc1N1CCCC1=O` the EC50 was 0.338 µM (Plasmodium falciparum; parasite growth; 3D7; 72 h, blood stage).
`COc1cc(C#CC(=O)C(C)C)ccc1O`: “activity vs control” 87% (Pseudomonas aeruginosa; microbial growth, absorbance; 100 µM, 24 h).
`O=C(CNc1ccccc1N1CCCC1=O)Nc1ccc(Oc2ccc(Cl)cc2)cc1` gave an EC50 of 1.67 µM (Plasmodium falciparum; parasite growth; 3D7; 72 h, blood stage).
`Cc1ncc(CO)c(C=O)c1O` — result for “activity vs control”: 28.5% (Cryptosporidium parvum; parasite growth, imaging; HCT-8; 1 mM, 24 h, intracellular).
With `Cc1ccc(N(C)c2ccc(NC(=O)CN(C)c3ccccc3N3CCCC3=O)cc2F)cc1` the EC50 was 0.623 µM (Plasmodium falciparum; parasite growth; 3D7; 72 h, blood stage).
The EC90 of `Cc1ccc2cc[nH]c2c1` is reported as 1270 µM (Cryptosporidium parvum; parasite growth; HCT-8; 24 h, intracellular).
For `COC(=O)N[C@H](C(=O)N1CC2(CC2)C[C@H]1c1nc(-c2ccc3c(c2)C(F)(F)c2cc(-c4ccc5[nH]c([C@@H]6[C@H]7CC[C@H](C7)N6C(=O)[C@@H](NC(=O)OC)C(C)C)nc5c4)ccc2-3)c[nH]1)C(C)C`, the IC50 was 0.04 µM (Trypanosoma cruzi; parasite growth, absorbance; Vero, TULAHUEN; 96 h, intracellular, amastigote).
`C[C@H](CCC(=O)O)[C@H]1CC[C@H]2[C@@H]3CC[C@@H]4C[C@H](O)CC[C@]4(C)[C@H]3C[C@H](O)[C@]12C`: “activity vs control” 47.3% (Cryptosporidium parvum; parasite growth, imaging; HCT-8; 100 µM, 24 h, intracellular).
With `CC(C)(C)c1cnc(CSc2cnc(NC(=O)C3CCNCC3)s2)o1` the MIC was over 30 µM (Staphylococcus aureus; microbial growth; NCTC8325).
`CC(=O)OC[C@@]1(C)[C@H]2CC[C@@H]3CN(Cc4ccc(C)cc4)[C@@H](C4=CCOC4=O)C[C@H]3[C@]2(C)CC[C@H]1OC(C)=O` gave an inhibition of 79.3% (unidentified human coronavirus; cytopathic effect; MRC5; 25 µM, 72 h).
`O=C(C#Cc1ccc(F)c(F)c1)c1ccc(Cl)cc1` — result for “activity vs control”: 98% (Pseudomonas aeruginosa; microbial growth, absorbance; 10 µM, 24 h).
For `O=C(O)c1cc(O)c2cccc(O)c2n1`, “activity vs control” read 110% (Cryptosporidium parvum; parasite growth, imaging; HCT-8; 1 mM, 24 h, intracellular).
`O=c1cc(N2CCOCC2)oc2c(-c3ccccc3)cccc12` has an MIC of over 30 µM (Staphylococcus aureus; microbial growth; NCTC8325).
For `COc1cc(C#CC(=O)c2ccccc2)ccc1O`, “activity vs control” read 92% (Pseudomonas aeruginosa; microbial growth, absorbance; 10 µM, 24 h).
With `CO[C@H]1C[C@@H]2CC[C@@H](C)[C@@](O)(O2)C(=O)C(=O)N2CCCC[C@H]2C(=O)O[C@H]([C@H](C)C[C@@H]2CC[C@@H](O)[C@H](OC)C2)CC(=O)[C@H](C)/C=C(\C)[C@@H](O)[C@@H](OC)C(=O)[C@H](C)C[C@H](C)/C=C/C=C/C=C/1C` the IC50 was 8.11 µM (Trypanosoma cruzi; parasite growth, absorbance; Vero, TULAHUEN; 96 h, intracellular, amastigote).
The MIC of `CCc1ccc(NC(=O)Nc2ccc(Cl)c(C(F)(F)F)c2)cc1` is reported as 0.7 µM (≈ 0.24 µg/mL) (Staphylococcus aureus; microbial growth; NCTC8325; 24 h).
The EC50 of `Cc1ccc(C(O)c2ccc(NC(=O)CN(C)c3ccccc3N3CCCC3=O)cc2)cc1` (stereo not drawn) is reported as 4.83 µM (Plasmodium falciparum; parasite growth; 3D7; 72 h, blood stage).
`Oc1cccc(-c2nc(N3CCOCC3)c3oc4ncccc4c3n2)c1` has an MIC of over 30 µM (Staphylococcus aureus; microbial growth; NCTC8325).
`COc1cc(C#CC(=O)c2ccccc2OC)ccc1O`: “activity vs control” 85% (Pseudomonas aeruginosa; microbial growth, absorbance; 100 µM, 24 h).
For `O=C(CNc1ccccc1N1CCCC1=O)Nc1ccc(Oc2ccccc2Cl)cc1`, the EC50 was over 10 µM (Plasmodium falciparum; parasite growth; 3D7; 72 h, blood stage).
`CCCS(=O)(=O)Oc1ccc(C=NNC(=O)CSc2nc3ccc(Cl)cc3c(=O)n2-c2ccccc2)cc1OC` has an inhibition zone of 2 mm (Pseudomonas aeruginosa; microbial growth, well diffusion; 20 µg/mL).
Under “activity vs control”, `COc1cc(C#CC(=O)CC(C)C)ccc1O` is recorded as 90% (Pseudomonas aeruginosa; microbial growth, absorbance; 10 µM, 24 h).
With `Cc1ccc(C(C)(C)c2ccc(NC(=O)CN(C)c3ccccc3N3CCCC3=O)cc2)cc1` the EC50 was 0.215 µM (Plasmodium falciparum; parasite growth; 3D7; 72 h, blood stage).
With `C#CCON=C1C=CC(=C(C#N)c2ccccc2)C=C1` the MFC was 32 µg/mL (≈ 123 µM) (Candida tropicalis; microbial killing, broth dilution; ATCC13803; 48 h).
`COc1cc(C#C[C@H](O)CC(C)C)ccc1O`: “activity vs control” 91% (Pseudomonas aeruginosa; microbial growth, absorbance; 10 µM, 24 h).
`CC1(C)S[C@@H]2[C@H](NC(=O)[C@H](N)c3ccccc3)C(=O)N2[C@H]1C(=O)O` has an MIC90 of 16 µg/mL (≈ 45.8 µM) (Streptococcus agalactiae; microbial growth; clinical isolate).
The EC90 of `Oc1ccc2cc[nH]c2c1` is reported as 1680 µM (Cryptosporidium parvum; parasite growth; HCT-8; 24 h, intracellular).
The MIC of `COc1cc(NC(=O)Nc2ccc(Cl)c(C(F)(F)F)c2)cc(OC)c1OC` is reported as 30 µM (≈ 12.1 µg/mL) (Staphylococcus aureus; microbial growth; NCTC8325; 24 h).
The MIC90 of `CC(=O)NC[C@H]1CN(c2ccc(N3CCOCC3)c(F)c2)C(=O)O1` is reported as 1 µg/mL (≈ 2.96 µM) (Staphylococcus epidermidis; microbial growth, broth dilution; clinical isolate).
The MIC of `COc1cc2nccc(Oc3ccc(NC(=O)C4(C(=O)Nc5ccc(F)cc5)CC4)cc3)c2cc1OC` is reported as over 30 µM (Staphylococcus aureus; microbial growth; NCTC8325).
`N#Cc1cccc2cc[nH]c12` gave an EC90 of 505 µM (Cryptosporidium parvum; parasite growth; HCT-8; 24 h, intracellular).
Under “activity vs control”, `O=C(C#Cc1ccc(F)c(F)c1)c1ccccc1Cl` is recorded as 97% (Pseudomonas aeruginosa; microbial growth, absorbance; 100 µM, 24 h).
`CN(Cc1ccc(C2(C(F)(F)F)CC2)cc1)Cc1cccc2ccccc12` gave an inhibition zone of 16.5 mm (Trichophyton rubrum; microbial growth, disc diffusion; ATCC28188; 0.001 µg/mL, 6 days).
`CCC(C)C(=O)C#Cc1ccc(O)c(OC)c1` (stereo not drawn): “activity vs control” 94% (Pseudomonas aeruginosa; microbial growth, absorbance; 100 µM, 24 h).
`Cc1ccc(N(CC(C)C)c2ccc(NC(=O)CN(C)c3ccccc3N3CCCC3=O)cc2)cc1` gave an EC50 of 0.031 µM (Plasmodium falciparum; parasite growth; 3D7; 72 h, blood stage).
The MIC of `CN1CCN(c2ccc3nc(-c4c(N)c5c(F)cccc5[nH]c4=O)[nH]c3c2)CC1` is reported as over 30 µM (Staphylococcus aureus; microbial growth; NCTC8325).
The EC50 of `Cc1ccc(N(C)c2ccc(NC(=O)CN(C)c3ccccc3N3CCCC3=O)cc2)cc1F` is reported as 0.026 µM (Plasmodium falciparum; parasite growth; 3D7; 72 h, blood stage).
`COC(=O)Nc1nc2ccc(C(=O)c3ccccc3)cc2[nH]1` has an IC90 of 2.5 µM (Cryptococcus neoformans; microbial growth, broth dilution; 72 h).
`Cc1ccc(C(=O)O)cc1` — result for “activity vs control”: 80.5% (Cryptosporidium parvum; parasite growth, imaging; HCT-8; 1 mM, 24 h, intracellular).
`CCOc1ccn(-c2ccc(F)cc2)c(=O)c1C(=O)Nc1ccc(Oc2ccnc(N)c2Cl)c(F)c1` gave an MIC of over 30 µM (Staphylococcus aureus; microbial growth; NCTC8325).

Some of these lines once more:
The MIC of `COc1cc2nccc(Oc3ccc(NC(=O)C4(C(=O)Nc5ccc(F)cc5)CC4)cc3)c2cc1OC` is reported as over 30 µM (Staphylococcus aureus; microbial growth; NCTC8325).
`N#Cc1cccc2cc[nH]c12` gave an EC90 of 505 µM (Cryptosporidium parvum; parasite growth; HCT-8; 24 h, intracellular).
Under “activity vs control”, `O=C(C#Cc1ccc(F)c(F)c1)c1ccccc1Cl` is recorded as 97% (Pseudomonas aeruginosa; microbial growth, absorbance; 100 µM, 24 h).
`CN(Cc1ccc(C2(C(F)(F)F)CC2)cc1)Cc1cccc2ccccc12` gave an inhibition zone of 16.5 mm (Trichophyton rubrum; microbial growth, disc diffusion; ATCC28188; 0.001 µg/mL, 6 days).
`CCC(C)C(=O)C#Cc1ccc(O)c(OC)c1` (stereo not drawn): “activity vs control” 94% (Pseudomonas aeruginosa; microbial growth, absorbance; 100 µM, 24 h).
